Experimental data pooled from the literature.
A part holds a random share of what one study measured. Positions count from the first letter of the parent shown.

Sample 1
Target: RNA binding protein fox-1 homolog 2, RRM domain, GST-SBP tag (RBFOX2, Homo sapiens, UniProt O43251-10, residues 100-194)
Technique: RNA Bind-n-Seq
Molecule type: RNA
Matrix: in vitro
Concentration: 365 nM
Setting: natural RNA segment, single round, ends assumed
Reference: no-protein control
Direction: higher = stronger binding
Residues (chain): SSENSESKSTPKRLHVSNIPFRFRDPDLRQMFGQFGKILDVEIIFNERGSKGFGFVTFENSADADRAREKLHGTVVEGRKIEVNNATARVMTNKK
`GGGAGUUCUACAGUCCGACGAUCGACAAGGUGAAAUGAUAAUUCGUGUCAAAUUAAUGUGAAAUUUUUUUCCUGCAUUGUAAUAUUAUGAGGCCUGAGUCGCAGUUGAGUUUGAAAUUUGUAUUUAAUUUCACUGGAAUUCUCGGGUGCCAA` — result for “RBNS enrichment (R)”: 0.434.
`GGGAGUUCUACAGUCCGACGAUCGCAGAGCUCGAAGAGCGGCCACAAGAAACAGAAAAACAAGGACAGGGAGUAUUACGUGUAAACAUGCGAACACUGCUCACACGCGAGUUUUCACAGUUAUUUCUAUCCACUGGAAUUCUCGGGUGCCAA` — result for “RBNS enrichment (R)”: 0.481.
`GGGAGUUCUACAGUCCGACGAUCCAUCGUCACGAGCCCCUGUGGUCAUGGGCGACCUCACACCUCCCUCCCUGAGUUCUGCUCUGACAUAAGGAAGUCCUCGGUGGCUGGUGCAGCGCGGCUGUGCUGUGCUGUGGAAUUCUCGGGUGCCAA`: “RBNS enrichment (R)” 0.351.
`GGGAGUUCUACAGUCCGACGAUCCAGCAGCCCUGGUUCCUUCCCAGUCAUACUUAUGGAAGAUGUGCCCUUCCAGAGGAAUAAGUUUGUUCCCUGACCACACUGGGGGACCCAGACUUCAACCCCACAGAGUCUGGAAUUCUCGGGUGCCAA` — result for “RBNS enrichment (R)”: 0.606.
`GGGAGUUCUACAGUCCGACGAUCUGGAUGAGAGCCAGGGAUGCAUUCUCUCCAAACAGCUACCCUGGCCCAUUUUAAGGUAAUCUCAUUCUUCAAAAUGUUCCAUAGAAUCCUCCAAAUUCCCCCAGCAGACUUGGAAUUCUCGGGUGCCAA`: “RBNS enrichment (R)” 0.433.
`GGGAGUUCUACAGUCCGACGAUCGAAUUCACCCGAAAUUCUCAUUUGCCAUCAGGCCGAGCUUUUAAAGAAAAAUUGUUCUCUAACCAGGAUUGUAACAAAAGUGUAAAUACUGUUUCAGAGUUGAGAGUUGGUGGAAUUCUCGGGUGCCAA`: “RBNS enrichment (R)” 0.353.
`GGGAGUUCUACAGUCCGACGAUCCACCCUCAUGCCAACUCUGCCCCAGGUCCAGGCCUCUGGGGCUGAUCUCAGGGAAGCCCAGCUCUGAAGCUAGAUUUACUGGACAAAGGGCAGCCUGGAAAGAGACUCCCUGGAAUUCUCGGGUGCCAA`: “RBNS enrichment (R)” 0.332.
Under “RBNS enrichment (R)”, `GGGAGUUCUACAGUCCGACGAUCUAGAAACGUAAGAUGACUUGUGUAGCACCUCUUUAUAAGCACACAGCUCAUCUUAAUAUUUUCCAUUUUUAUUAGAGGAAGUAGGACAGAGUUGUGUUUUUCUUUAUAAAUGGAAUUCUCGGGUGCCAA` is recorded as 1.09.

Sample 2
Target: Histone acetyltransferase KAT6A, both winged helices, GST fusion (KAT6A, Homo sapiens, UniProt Q92794, residues 1-181)
Technique: protein binding microarray
Molecule type: double-stranded DNA, one strand shown
Matrix: in vitro
Concentration: not given
Setting: 8-mer, flanks averaged, mean of 2 arrays, mostly near background
Reference: not given
Direction: higher = stronger binding
Construct (chain): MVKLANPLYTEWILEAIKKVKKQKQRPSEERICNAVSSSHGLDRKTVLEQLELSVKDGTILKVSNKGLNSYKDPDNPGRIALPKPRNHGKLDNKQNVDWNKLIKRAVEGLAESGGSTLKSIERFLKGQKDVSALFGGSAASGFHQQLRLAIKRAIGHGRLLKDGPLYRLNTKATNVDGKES
The E-score of `AAAAAGTT` is reported as -0.188.
`AATACTAG` gave an E-score of -0.0929.
`ACGTGTAA` has an E-score of -0.0607.
`ACGCCCTA` has an E-score of 0.00805.
For `ATTTTTCG`, the E-score was -0.0524.
With `CATAATAA` the E-score was -0.0752.
The E-score of `CACCCATC` is reported as -0.0834.
For `AGGACTCC`, the E-score was -0.206.
For `GCTGGAAC`, the E-score was -0.0969.
`CCCAAGCC` has an E-score of 0.0921.
`ACGCATCA` has an E-score of 0.0896.
`ACGTAACG` has an E-score of 0.0414.
With `ACCTAGTG` the E-score was -0.144.
For `ATAGGCAA`, the E-score was -0.236.
With `GCTTTGAA` the E-score was -0.0336.
With `TGTCGTAA` the E-score was -0.032.
The E-score of `GGTAGACC` is reported as -0.0368.
With `ACCTGCGT` the E-score was 0.0285.
The E-score of `ATGGCAAT` is reported as -0.172.
With `AAGACTTA` the E-score was -0.212.
`CTAGTGAC` gave an E-score of -0.0758.
`GCGGATAA` gave an E-score of 0.205.
`AAACTACC` gave an E-score of -0.0477.
`AAAGCGAG` gave an E-score of 0.106.
For `TATATCAA`, the E-score was 0.0375.

Sample 3
Target: NFE2L1, bZIP domain (human)
Technique: DHFR protein complementation
Matrix: yeast
Setting: single substitutions, most at no-binding floor
Reference: wild-type JUN-FOS pair
Direction: higher = stronger binding
Starting sequence: JUN, bZIP domain (human); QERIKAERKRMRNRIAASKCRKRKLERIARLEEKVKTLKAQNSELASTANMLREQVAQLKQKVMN; partner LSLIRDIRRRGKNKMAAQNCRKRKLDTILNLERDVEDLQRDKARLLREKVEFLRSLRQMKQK
With `E33G` the binding fitness was -1.49 natural log.
With `A40T` the binding fitness was -1.28 natural log.
For `Q41P`, the binding fitness was -1.45 natural log.
`K36R` gave a binding fitness of -1.36 natural log.
`L52I` has a binding fitness of -1.56 natural log.
`A40M` has a binding fitness of -1.06 natural log.
The binding fitness of `N42S` is reported as -1.4 natural log.
`E54A` has a binding fitness of -1.36 natural log.
`Q55T` has a binding fitness of -1.6 natural log.
`I28A` has a binding fitness of -1.39 natural log.
With `K34D` the binding fitness was -1.47 natural log.
`S47A` has a binding fitness of -1.4 natural log.
`A49Y` has a binding fitness of -1.54 natural log.
With `N42T` the binding fitness was -1.51 natural log.
The binding fitness of `L38V` is reported as -1.4 natural log.
For `E32F`, the binding fitness was -1.53 natural log.
With `R30M` the binding fitness was -1.48 natural log.
`Q41T` has a binding fitness of -1.51 natural log.
For `A40P`, the binding fitness was -1.55 natural log.
`L52E` gave a binding fitness of -1.37 natural log.
`N42D` gave a binding fitness of -1.45 natural log.
`V56L` gave a binding fitness of -1.5 natural log.
The binding fitness of `T48K` is reported as -1.37 natural log.

Sample 4
Target: CCNA2, cyclin fold, Cln2 fusion (human)
Technique: yeast growth competition, sequencing
Matrix: yeast
Setting: weak parent motif
Reference: not given
Direction: higher = stronger binding
Starting sequence: AKAP12 docking peptide (human); GSPLKKLFTSTGL
Under “normalised enrichment score”, `GSPLKKAFTSTGL [L7A]` is recorded as -0.265.
Under “normalised enrichment score”, `GSPLKALFTSTGL [K6A]` is recorded as -0.0163.
`GSPLKKLFTSTAL [G12A]` — result for “normalised enrichment score”: 0.21.
Under “normalised enrichment score”, `ASPLKKLFTSTGL [G1A]` is recorded as 1.04.
For `GSPLKKLFASTGL [T9A]`, “normalised enrichment score” read 1.6.
`GSALKKLFTSTGL [P3A]`: “normalised enrichment score” 2.3.
For `GAPLKKLFTSTGL [S2A]`, “normalised enrichment score” read 1.71.
`GSPLAKAFTSTGL [K5A L7A]` — result for “normalised enrichment score”: -0.0454.
`GSPLKKLLTSTGL [F8L]` — result for “normalised enrichment score”: 0.381.
For `GSPLRKLFTSTGL [K5R]`, “normalised enrichment score” read 0.851.

Sample 5
Target: Interferon regulatory factor 3, full length, phosphomimetic (IRF3, Homo sapiens, UniProt Q14653, residues 1-427, S386D/S396D/S398D/S402D/T404D/S405D)
Sequence of UniProt Q14653 (whole entry, unmodified, looked up): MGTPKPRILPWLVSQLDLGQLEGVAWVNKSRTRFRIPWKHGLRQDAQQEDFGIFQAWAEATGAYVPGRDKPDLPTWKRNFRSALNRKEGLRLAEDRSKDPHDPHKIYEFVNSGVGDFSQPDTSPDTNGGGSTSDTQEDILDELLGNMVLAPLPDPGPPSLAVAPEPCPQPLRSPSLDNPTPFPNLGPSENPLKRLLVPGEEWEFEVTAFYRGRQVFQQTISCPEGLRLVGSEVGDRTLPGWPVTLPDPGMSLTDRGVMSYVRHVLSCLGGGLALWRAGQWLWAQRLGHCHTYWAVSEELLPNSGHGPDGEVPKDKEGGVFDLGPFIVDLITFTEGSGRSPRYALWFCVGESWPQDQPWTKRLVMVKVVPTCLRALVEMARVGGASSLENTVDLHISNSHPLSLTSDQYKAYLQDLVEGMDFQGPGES
Technique: protein-binding microarray
Molecule type: double-stranded DNA, one strand shown
Matrix: in vitro
Concentration: 2540 nM top
Setting: 60-bp whole probe
Together with: salmon DNA 0.4 mg/ml
Reference: random background probes
Direction: higher = stronger binding
Constant ends, left off below: GCCTAGCAC … GTCTTGATTCGCTTGACGCTGCTG
`TCAATAATGGATATATAACTGTGCTAG`: “fitted relative affinity” 0.0446 z-score.
`TTAGGATTCGGGTATCGGTTAGTGCTA`: “fitted relative affinity” 1.4 z-score.
Under “fitted relative affinity”, `TTAGGTATCGACTTTTGGTTAGTGCTA` is recorded as 0.428 z-score.
For `GACTGTCTCGGTCTCGGGACGTGCTAG`, “fitted relative affinity” read 1.22 z-score.
`TTAGGACTGGGGTTCCGGTTAGTGCTA` — result for “fitted relative affinity”: -0.00164 z-score.
`ACCCTCATTCTACTATCGATGTGCTAG`: “fitted relative affinity” 1.59 z-score.
`GACGGACTGGGGTTTCGGCACGTGCTA`: “fitted relative affinity” -0.112 z-score.
Under “fitted relative affinity”, `GACGGTCTCGGTTTCGGGGCGTGCTAG` is recorded as 3.37 z-score.
`GACGAACTGGGGGCTGGAGACGTGCTA`: “fitted relative affinity” -0.283 z-score.
Under “fitted relative affinity”, `TTAGGACAGGGTCTCGGTTAGTGCTAG` is recorded as -0.508 z-score.
Under “fitted relative affinity”, `GACGGTATCGATCTCGGGACGTGCTAG` is recorded as 3.29 z-score.
`GACGGTTTCCGTCTCGGGACGTGCTAG`: “fitted relative affinity” 7.41 z-score.
Under “fitted relative affinity”, `CTAGGACTGCTTCTCCTTTAGTGCTAG` is recorded as -0.0314 z-score.
Under “fitted relative affinity”, `TTAGATTTCAGTTTCTATTAGTGCTAG` is recorded as 4.64 z-score.
For `GTGAGAAATAAGTTTCTTTTGTGCTAG`, “fitted relative affinity” read 0.635 z-score.
`TTCTCCATGGGTATGGCCTAGTGCTAG` — result for “fitted relative affinity”: 0.455 z-score.
`TTTCTAATGTTTTTTAAAGTGTGCTAG` — result for “fitted relative affinity”: 1.88 z-score.
Under “fitted relative affinity”, `TTAGATTTCGGGACTGCATTAGTGCTA` is recorded as 1.34 z-score.
`GACGCTCTCAGTTTCGAGACGTGCTAG` — result for “fitted relative affinity”: 2.15 z-score.

A few entries again (sample 3):
For `Q41P`, the binding fitness was -1.45 natural log.
`K36R` gave a binding fitness of -1.36 natural log.
`L52I` has a binding fitness of -1.56 natural log.
`A40M` has a binding fitness of -1.06 natural log.
The binding fitness of `N42S` is reported as -1.4 natural log.
`E54A` has a binding fitness of -1.36 natural log.
`Q55T` has a binding fitness of -1.6 natural log.
`I28A` has a binding fitness of -1.39 natural log.
With `K34D` the binding fitness was -1.47 natural log.
